Measured values of several laboratories.
Numbered parts are unrelated; each lists some results of a single study.

Block 1
Target: TAR DNA-binding protein 43, full length, His tag (TARDBP, Homo sapiens, UniProt Q13148, residues 1-414)
Technique: RNA Bind-n-Seq
Molecule type: RNA
Sample: in vitro
Tested at: 20 nM
Notes: 6-mer, flanks averaged, single round
Added: 150 mM LiCl
Relative to: input library
Reading: higher = stronger binding
Sequence	6-mer enrichment (R)
UGGCUC	0.926
CUACUC	0.852
CCAACG	0.846
AGAAAU	0.848
UGUCUG	1.11
CCAUUG	0.951
UGGUGG	1.45
CGCUAG	0.89

Block 2
Target: RNA binding protein fox-1 homolog 2, RRM domain, GST-SBP tag (RBFOX2, Homo sapiens, UniProt O43251-10, residues 100-194)
Technique: RNA Bind-n-Seq
Molecule type: RNA
Sample: in vitro
Tested at: 365 nM
Notes: natural RNA segment, single round, ends assumed
Relative to: no-protein control
Reading: higher = stronger binding
Shared flanks, not repeated: GGGAGUUCUACAGUCCGACGAUC … UGGAAUUCUCGGGUGCCAA
Construct (chain): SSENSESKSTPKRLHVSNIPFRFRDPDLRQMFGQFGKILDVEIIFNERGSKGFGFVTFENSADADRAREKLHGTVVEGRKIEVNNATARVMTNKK
Sequence	RBNS enrichment (R)
UCAUCCCUGCCACCACCAUUGGUCUCUGCCAGCUGAAGUGCCCUAUUGCCCCCGCACAGCACCAUCUCAGCAUUCCACAGGGGACUCUGGAAAGGGUGCGGAAGGUAGGC	0.798
AGUUUCAGGUGAACUUCUUCAGCAGAAUAAGGUGAUGCCACUCUGACCUUUGCUGAGCUCAGUGACUCUUCAGUGUUAAAACUGAACCCCAGAGGGGAUUCUCCAUGCCA	0.233
UUCCCUCACUAAAAGCUUAAGCAAUUGUCAGUCAGAAUUCUGUUUGCUGAGUGCUGGUGCAGGCUUUAUGCUUUCCACGUGAAUUAAAUCAAAUGUGAAGUUGAUCCAGA	0.474
GCGCCAAAUGGUUUUCUUCUCAAUCUUAAAGCAGUAUACCUUUCCACAGGCUCGUCUGUGUCCCUGCCACUCUGAGUUAUCCAGAAACCACCACCUACAAAUGAGGGGAC	0.197
AGAAUUCCUUCAUGGUUGAAGAUGUGAAUAAUUGCACAUGAUCUCUUAGAGGAACUGUAAAUCUAUUGCCCAGUCAUAACAUUUUGAGCUGCAUUUAAGUAGACUAUGGA	0.481
CCUUAAGCCCUUCUGGCUUCGUUUAUGGUCUUCAUUAAAAGUAUAAGCCUAACUUUGUCGCUAGUCCUAAGGAGAAACCUUUAACCACAAAGUUUUUAUCAUUGAAGACA	0.361
UCCGUCGUGGUGGAUGGACUUCACAUCAGCAGCAGUUCUGGUACAGAAUUGUAAUGUGUUUUCAUUUCUCUGUAGGAUUCACCUCUCACCAGCGUCUGUCUUAAAGGUAG	0.212
GAUGAUAAUGAGGUACUGAACCACGAUGGCUGUUGAGGAAUUGGUCCUAAAAGGACAGAUCACUUCAGAAGAGUGAAUAACUGAUUUGCACAGCUGAAUCAGGAGACACA	0.303

Mixed results
Molecule	target or system	assay	test system	conditions	quantity	result
RPN1 (Homo sapiens, UniProt P04843)	MLEC (Homo sapiens, UniProt Q14165)	cross-linking MS	–	hits only	interaction screen	cross-linked
AYPKWKFFL	HLA class I histocompatibility antigen, C alpha chain, allele C*04:01 (Homo sapiens, UniProt P10321)	peptide-MHC binding	peptide	concentration not given	binding	inactive
HSPA4L (Homo sapiens, UniProt O95757)	HSPA1B (Homo sapiens, UniProt P0DMV9)	cross-linking MS	–	hits only	interaction screen	cross-linked
COPB2 (Homo sapiens, UniProt P35606)	SCN3A (Homo sapiens, UniProt Q9NY46)	cross-linking MS	cell fractions	added: DSSO	cross-linked residues	K386 to K1019
NOA1 (Homo sapiens, UniProt Q8NC60)	UBXN4 (Homo sapiens, UniProt Q92575)	cross-linking MS	cell fractions	added: DSSO	cross-linked residues	S369 to K269
